Measurements collected from several papers.
Numbered parts are unrelated; each lists some results of a single study. Values joined by “and” are separate records of one study, mostly repeats; a detail may differ.

Block 1
Target: Replicase polyprotein 1ab, nsp13 helicase (rep, Severe acute respiratory syndrome coronavirus 2, UniProt P0DTD1)
Mode: inhibitor
Concentration: 20 µM
`NCCCCCC(O)(P(=O)(O)O)P(=O)(O)O` has an inhibition of 2.65%.
The inhibition of `C[C@]12CCC(=O)C=C1CC[C@@H]1[C@@H]2CC[C@@]2(C)[C@H]1CC[C@]2(O)C(=O)CO` is reported as 6.56%.
With `C[C@]12CC[C@H](O)C[C@H]1CC[C@@H]1[C@@H]2C[C@@H](O)[C@]2(C)[C@@H](C3=CC(=O)OC3)CC[C@]12O` the inhibition was 3.37%.
The inhibition of `C=C[C@@H]1C[C@]1(NC(=O)[C@@H]1C[C@@H](Oc2ncc(OC)c3ccc(Cl)cc23)CN1C(=O)[C@@H](NC(=O)OC(C)(C)C)C(C)(C)C)C(=O)NS(=O)(=O)C1CC1` is reported as 4.02%.
With `CC(=O)OCC(=O)[C@@]1(O)CC[C@H]2[C@@H]3CCC4=CC(=O)CC[C@]4(C)[C@@]3(F)[C@@H](O)C[C@@]21C` the inhibition was 6.34%.
`OC[C@@H](O)[C@@H](O)[C@@H](O)CO` gave an inhibition of -1.87%.
`CCS(=O)(=O)N1CCC([C@@H](C)n2c(C)c(C(=O)NCc3c(OC)cc(C)[nH]c3=O)c3ccccc32)CC1` gave an inhibition of -1.63%.
`C[C@@H]([C@@H](O)c1ccc(O)cc1)N1CCC(O)(c2ccccc2)CC1` has an inhibition of 8.04%.
`O=C1NC(=O)c2c1c1c3ccccc3n3c1c1c2c2ccccc2n1[C@H]1CC[C@@H]3O1` gave an inhibition of -0.67%.
For `Cc1ccc(C(=O)Nc2ccc(CN3CCN(C)CC3)c(C(F)(F)F)c2)cc1C#Cc1cnc2cccnn12`, the inhibition was 12.8%.
For `Oc1ccc(-c2nc(-c3ccc(F)cc3)c(-c3ccncc3)[nH]2)cc1`, the inhibition was -5.72%.
With `NC(=O)c1cc[n+](CC2=C(C(=O)O)N3C(=O)[C@@H](NC(=O)[C@@H](c4ccccc4)S(=O)(=O)[O-])[C@H]3SC2)cc1` the inhibition was 43.4%.
`O=C(O)[C@H]1O[C@H](O)[C@H](O)[C@@H](O)[C@@H]1O` has an inhibition of 0.03%.
For `O=C(NC1CCN(CCCCC2(C(=O)NCC(F)(F)F)c3ccccc3-c3ccccc32)CC1)c1ccccc1-c1ccc(C(F)(F)F)cc1`, the inhibition was 5.82%.
`CCOC(=O)[C@H](CCc1ccccc1)N[C@H]1CCc2ccccc2N(CC(=O)O)C1=O` has an inhibition of 8.02%.
`O=C(O)CC(S)C(=O)O` (centres unmarked) gave an inhibition of 2.93%.
With `Cc1ccc(C(=O)N(CCCN)[C@@H](c2oc3cc(Cl)ccc3c(=O)c2Cc2ccccc2)C(C)C)cc1` the inhibition was 0.9%.
`CC1(C)CC[C@]2(C(=O)O)CC[C@]3(C)[C@H](C(=O)C=C4[C@@]5(C)C=C(C#N)C(=O)C(C)(C)[C@@H]5CC[C@]43C)[C@@H]2C1` has an inhibition of 39.2%.
`Cc1cccc(/C=N/Nc2cc(N3CCOCC3)nc(OCCc3ccccn3)n2)c1` has an inhibition of 3.6%.
For `Cc1cnc(CNC(=O)c2c(=O)c3ccc(N4CCCN(C)CC4)nc3n3c2sc2ccccc23)cn1`, the inhibition was 7.79%.
For `C[C@H](Oc1ccc(S(C)(=O)=O)cc1C(=O)N1CCN(c2ncc(C(F)(F)F)cc2F)CC1)C(F)(F)F`, the inhibition was -1.09%.
For `Cc1ccc(-n2nc(C(C)(C)C)cc2NC(=O)NCc2cc(F)ccc2Oc2ccc3c(cnn3CCO)c2)cc1`, the inhibition was 11.4%.
`O=c1[nH]c2ccccc2n1C1CCN(CCOc2ccccc2)CC1` has an inhibition of -5.01%.
`CC(C)NCC(O)c1ccc2ccccc2c1` (centres unmarked) gave an inhibition of 1.94%.
`CCOc1ccc(/C=C2\NCCc3cc(OCC)c(OCC)cc32)cc1OCC` gave an inhibition of -4.25%.

Block 2
Target: Interferon regulatory factor 7, full length, phosphomimetic (IRF7, Homo sapiens, UniProt Q92985, residues 1-503, S101K/S471D/S472D/S475D/S476D/S477D/S483D/S484D/S487D)
Method: protein-binding microarray
Form: double-stranded DNA, one strand shown
Medium: in vitro
Concentration: 250 nM
Notes: 60-bp whole probe
With: salmon DNA 0.4 mg/ml
Relative to: random background probes
Direction: higher = stronger binding
Constant ends, left off below: GCCTAGCAC … GTCTTGATTCGCTTGACGCTGCTG
Construct (chain): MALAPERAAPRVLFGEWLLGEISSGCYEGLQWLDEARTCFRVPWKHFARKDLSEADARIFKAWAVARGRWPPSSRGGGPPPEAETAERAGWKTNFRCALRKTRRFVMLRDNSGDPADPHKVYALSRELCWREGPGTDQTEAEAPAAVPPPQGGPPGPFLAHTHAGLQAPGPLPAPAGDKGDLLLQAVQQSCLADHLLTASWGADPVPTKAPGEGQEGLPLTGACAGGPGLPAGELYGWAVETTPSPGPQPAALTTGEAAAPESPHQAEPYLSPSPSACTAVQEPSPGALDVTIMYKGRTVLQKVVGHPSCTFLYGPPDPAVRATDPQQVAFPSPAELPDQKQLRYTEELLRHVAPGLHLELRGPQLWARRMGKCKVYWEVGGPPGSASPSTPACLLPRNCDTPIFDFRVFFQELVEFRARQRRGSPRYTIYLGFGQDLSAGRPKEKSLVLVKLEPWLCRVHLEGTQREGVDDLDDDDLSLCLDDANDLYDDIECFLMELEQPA
For `GACGAACTGTGGACTGGAGACGTGCTA`, the log fluorescence was -0.607 z-score.
`TTAAATATCAGACTGGATTAGTGCTAG` gave a log fluorescence of -0.0972 z-score.
The log fluorescence of `TTAGAACTCGGGTATCGATTAGTGCTA` is reported as 0.864 z-score.
With `GACGGTTTCCTTTTCCGGACGTGCTAG` the log fluorescence was 6.64 z-score.
`GCTTCTACACAGAGCATGGGGTGCTAG` has a log fluorescence of 1.27 z-score.
The log fluorescence of `TCATGTTTGTCCCTATTACTGTGCTAG` is reported as 1.17 z-score.
With `TTAGATTTCGGTTCCGGTTAGTGCTAG` the log fluorescence was 4.83 z-score.
The log fluorescence of `GACGAACTGGGCTTTCGAGACGTGCTA` is reported as -0.609 z-score.

Block 3
Target: RNA binding protein fox-1 homolog 2, RRM domain, GST-SBP tag (RBFOX2, Homo sapiens, UniProt O43251-10, residues 100-194)
Method: RNA Bind-n-Seq
Form: RNA
Medium: in vitro
Concentration: 365 nM
Notes: natural RNA segment, single round, ends assumed
Relative to: no-protein control
Direction: higher = stronger binding
Target sequence (chain): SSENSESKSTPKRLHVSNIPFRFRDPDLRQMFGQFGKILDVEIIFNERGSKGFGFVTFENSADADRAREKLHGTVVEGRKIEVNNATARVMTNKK
`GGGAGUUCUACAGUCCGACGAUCUGACGUAGUGCUCUCAUGGGCUCACCUGGGCCCAAGGCACAGCCAGGGCACAGUUAGGCCUGGAUGUUUGCCUGGUCCGUGAGAUGCCGCGGGUCCUGUUUCCUUACUGGUGGAAUUCUCGGGUGCCAA`: “RBNS enrichment (R)” 0.696.
`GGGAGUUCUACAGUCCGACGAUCACAUAAUUCAAAAGAGUAAAGAAAUGGCUAGGAAUGAGGUAGUUGUGUAAUUAUUUCUUCUCUUACUAGUUUCAAAUAAAUUCAUCUCUAAUUCUAUAGAGAAUUCUUGCUGGAAUUCUCGGGUGCCAA`: “RBNS enrichment (R)” 0.932.
Under “RBNS enrichment (R)”, `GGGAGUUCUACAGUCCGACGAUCUUGGAAUGAAAAUACUUCUUGCACUUAAACACUGCACAUGCCGUACUUUGAGGUUAGUCUGAAUCUUGAACUUUAAUACCAAAUUAAUUUUGAAUGCUUUUGUUUCCUAAUGGAAUUCUCGGGUGCCAA` is recorded as 3.12.
`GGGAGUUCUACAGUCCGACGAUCCAUGUCUAGCCUUUAGAGUGGCCAAUCAUGUUUUACUUUCAUUUAAGCACUGGUAGUCUGGAGUACCUGGUACUGAGUAACUCUAUAAUUGUGUUUUGUGUUCACCAUAUUGGAAUUCUCGGGUGCCAA` — result for “RBNS enrichment (R)”: 0.676.
`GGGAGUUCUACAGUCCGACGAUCUCACGUACCGAGUGGGCAGUGUCACAGCCAAAGCUACCACUGAGCCACAGCGUAGGUCAUUGCUUGAAAAAAAUGACAGUGACAAUGGAGUGUGACCUUGGUGUACUGUGUGGAAUUCUCGGGUGCCAA` — result for “RBNS enrichment (R)”: 1.02.
`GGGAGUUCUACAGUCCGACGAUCCCCCAUCUGUAAAAUGGGCUGAUUGGCCUCCACGGUCAGAGCGGCCAUCUGGCUGUGCCAUCCUGCAUUUUUAGGAAUGGAAAGCAGGCCUCUGAGGCAGUGGACAGGAAUGGAAUUCUCGGGUGCCAA`: “RBNS enrichment (R)” 1.66.
`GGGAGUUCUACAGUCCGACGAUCCCACCUUGACGGUGGGGCGUAGACUUGACAACAUCCCACAGUGGCACGGAGAGAAGGCCCAUACCUUCUGGUUGCUUCAGACCUGACACCGUCCCUCAGUGAUACGUACAUGGAAUUCUCGGGUGCCAA`: “RBNS enrichment (R)” 0.182.
For `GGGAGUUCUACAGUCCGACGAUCGAAGACUUUCUCCACUCUGACCAGAUUUAUAAAAUUUCUCCUUUCAUAGAUUUAGUCAGAAGCUGUUUUACUCUCUUAUCUUACAUUCUAUCUAGCUUCCAUAAUUUAUAUGGAAUUCUCGGGUGCCAA`, “RBNS enrichment (R)” read 0.465.

Block 4
Target: Histone acetyltransferase KAT6A, both winged helices, GST fusion (KAT6A, Homo sapiens, UniProt Q92794, residues 1-181)
Method: protein binding microarray
Form: double-stranded DNA, one strand shown
Medium: in vitro
Concentration: not given
Notes: 8-mer, flanks averaged, mean of 2 arrays, mostly near background
Relative to: not given
Direction: higher = stronger binding
Target sequence (chain): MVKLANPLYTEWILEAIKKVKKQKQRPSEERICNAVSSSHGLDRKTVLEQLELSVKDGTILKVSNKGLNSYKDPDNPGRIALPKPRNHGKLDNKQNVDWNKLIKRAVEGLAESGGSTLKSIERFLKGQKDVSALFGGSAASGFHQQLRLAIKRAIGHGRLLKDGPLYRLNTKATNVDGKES
The E-score of `CCCTACCA` is reported as 0.0314.
For `TACGAAGA`, the E-score was -0.0184.
With `GAGGTCAC` the E-score was -0.094.
For `CCCCCGCA`, the E-score was 0.134.
For `AAGTATCT`, the E-score was -0.082.
For `CAACAAAA`, the E-score was -0.115.
With `ATTTGGGA` the E-score was -0.162.
The E-score of `TAATGCAA` is reported as -0.217.

Mixed results
Concentration: 10 µM
With `O=C1Nc2ccc(Cl)cc2[C@@](C#CC2CC2)(C(F)(F)F)O1` the GFP-positive cells was 95.4% (HEK-293T; pseudovirus infection; VSV pseudotyped with SARS-CoV-2 spike; 16 h; relative to: vehicle-treated).
`C=C1C(=O)O[C@H]2[C@H]1CC/C(C)=C/CC[C@@]1(C)O[C@@H]21` has an inhibition of -43.2% (SARS-CoV-2; cytopathic effect; Vero E6).
The GFP-positive cells of `CN1C2CCCC1CC(NC(=O)c1nn(C)c3ccccc13)C2` (centres unmarked) is reported as 90% (HEK-293T; pseudovirus infection, FDA-approved drug library screen; VSV pseudotyped with SARS-CoV-2 spike; 16 h; relative to: vehicle-treated).
With `O=C(/C=C/c1ccc(O)c(O)c1)O[C@H](Cc1ccc(O)c(O)c1)C(=O)O` the inhibition was 8.3% and -4.6% (SARS-CoV-2; cytopathic effect; Vero E6).

Excerpt of the above (block 1):
`CC(C)NCC(O)c1ccc2ccccc2c1` (centres unmarked) gave an inhibition of 1.94%.
With `Cc1ccc(C(=O)N(CCCN)[C@@H](c2oc3cc(Cl)ccc3c(=O)c2Cc2ccccc2)C(C)C)cc1` the inhibition was 0.9%.
`NCCCCCC(O)(P(=O)(O)O)P(=O)(O)O` has an inhibition of 2.65%.
For `Cc1ccc(C(=O)Nc2ccc(CN3CCN(C)CC3)c(C(F)(F)F)c2)cc1C#Cc1cnc2cccnn12`, the inhibition was 12.8%.
`Cc1cccc(/C=N/Nc2cc(N3CCOCC3)nc(OCCc3ccccn3)n2)c1` has an inhibition of 3.6%.
`O=C(O)CC(S)C(=O)O` (centres unmarked) gave an inhibition of 2.93%.
With `CC(=O)OCC(=O)[C@@]1(O)CC[C@H]2[C@@H]3CCC4=CC(=O)CC[C@]4(C)[C@@]3(F)[C@@H](O)C[C@@]21C` the inhibition was 6.34%.
For `Cc1ccc(-n2nc(C(C)(C)C)cc2NC(=O)NCc2cc(F)ccc2Oc2ccc3c(cnn3CCO)c2)cc1`, the inhibition was 11.4%.
